Experimental data pooled from the literature.
“And” joins repeats or separate records; there may be more than shown. ± gives the spread as reported.

The uptake of CN(Cc1cnc2nc(N)nc(N)c2n1)c1ccc(C(=O)N[C@@H](CCC(=O)O)C(=O)O)cc1 is reported as about 22.4% (cells transfected with E247Q mutant; 0.5 µM, 3 h, pH 5.5, 37 °C).
For CCc1ccc(NC(=O)C2CCC(CNS(=O)(=O)c3ccc4c(c3)CC(C)N4C(C)=O)CC2)cc1 (stereo not drawn), the efficacy was 27% (LDR; silenced CMV-GFP reporter derepression, qHTS).
CCCCN1CCN(c2ccc3[nH]c(-c4ccc5[nH]c(-c6cc(OC)c(OC)c(OC)c6)nc5c4)nc3c2)CC1 gave a growth percent of 131% (TK-10; SRB; 10 µM, 48 h).
With COc1cc(/C=C/C(=O)N2CCC=CC2=O)cc(OC)c1OC the mRNA level was 60.3 ± 10% (MDA-MB-468; quantitative RT-PCR, measured: GSR; 30 µM, 8 h; baseline: untreated cells).
For S=C(Nc1ccccc1)c1ccccn1, the efficacy was 84% (LDR; silenced CMV-GFP reporter derepression, qHTS).
For CC/C(=N\NC(=O)NCc1cccc(O)c1)c1ccc(O)c(C)c1O, the protein level was 0.98 ± 0.43 (SK-OV-3; Western blot, measured: LATS; 10 µM, 1 h, 2D culture, unit not given; baseline: β-actin).
COc1ccc2c(C)cc(SCC(=O)N(C)C3CCS(=O)(=O)C3)nc2c1 (stereo not drawn) has an efficacy of 66% (LDR; silenced CMV-GFP reporter derepression, qHTS).
C=CC(=O)N1CCC[C@@H](n2nc(-c3ccc(Oc4ccccc4)cc3)c3c(N)ncnc32)C1 gave a GI50 of 6.05 µM (REC-BTK^KO-OE; cell growth; 72 h).
COc1cc2ncnc(Nc3ccc(Oc4ccccc4)cc3C)c2cc1OC has a viability of 82.9% (MeWo (NF1); resazurin; 3 µM, 72 h, added: trametinib 0 nM).
O=C1N=C(N2CCCCC2)S/C1=C\c1ccc(O)cc1: EC50 “inactive” (NG108-cl; clomeleon fluorescence, measured: intracellular chloride reduction; 5 h).
Under “fold change in expression”, Cn1cc(-c2ccc(-c3cncc(Cl)c3N3CCC4(CCNC4=O)CC3)cc2)cn1 is recorded as 2.64 (COLO 205; microarray, measured: BBC3; concentration not given, 2 h, gene set PUMA; baseline: untreated cells).
COc1cccc2c1C(=O)c1c(O)c3c(c(O)c1C2=O)C[C@@](O)(C(=O)CO)C[C@@H]3O[C@H]1C[C@H](N)[C@H](O)[C@H](C)O1 has a selectivity index of 0.4 (SW480; MTT; 72 h; baseline: IC50 HaCaT over IC50 SW480).
N#CC1=C(N)n2c(s/c(=C\c3cccs3)c2=O)=C(C#N)C1c1cccs1 (stereo not drawn) has an efficacy of 114% (LDR; silenced CMV-GFP reporter derepression, qHTS).
For CCn1cc(-c2cc(Cn3ccnc3)cc3c2CCN([C@H](c2cc(OC)ccn2)C2CC2)C3=O)c(C(F)(F)F)n1, the EC50 was over 30 µM (NCI-H1838; cell growth, inhibitor; 120 h).
Cc1nc(NC(=O)N2CCC[C@H]2C(N)=O)sc1-c1ccnc(C(C)(C)C(F)(F)F)c1 — result for “Hill coefficient GR curve”: 0.481 (NCI-H1563; cell growth, CellTiter-Glo; 120 h).
CSc1cc(Oc2ccnc3[nH]c(=O)cnc23)ccc1NC(=O)Nc1cc(C(C)(C)C)nn1-c1ccccc1 gave a phospho ratio of 0.64 (patient-derived cell line clone A; RPPA, measured: phosphorylated STAT5; human; 1 µM, 4 h; baseline: DMSO).
For Cc1nc(N(Cc2ccccc2)c2ccc3c(c2)/C(=C/c2ccccc2)C(=O)N3Cc2ccccc2)c2ccccc2n1 (mixture of isomers), the migration inhibition was 81% (LLC; Transwell; 2 µM, 24 h; baseline: untreated).
Under “G2/M phase cells”, CCCCCCCCCCCCCCCC(NCc1ccccc1O)=C1C(=O)OC(CO)C1=O (stereo not drawn) is recorded as 29.1% (G2-synchronized tsFT210 cells; flow cytometry; 5 µM, 4 h, 32 °C, release from G2 arrest).
With Oc1ccc(Br)cc1C=Nc1ccc2c3c(cccc13)CC2 the efficacy was 136% (LDR; silenced CMV-GFP reporter derepression, qHTS).
O=C(/C=C/C=C/C=C/C1CCCCC1)NC1=C[C@@](O)(/C=C/C=C/C=C/C(=O)NC2=C(O)CCC2=O)[C@@H]2O[C@@H]2C1=O has a GI50 of 18.4 µM (KYSE-450; cell growth, CellTiter-Glo; 78 h).
Cc1cnc2ccc3c(c2n1)N1CCC(O)N=C1N3C (stereo not drawn) has a colony number of 0 colonies per plate (BALB/c 3T3; colony forming efficiency; 10 µM).
O=C(C[C@@H](C(F)F)n1ccc(F)n1)N1CCC(O)(Cn2cnc3c(cnn3-c3ccc(F)cc3)c2=O)CC1 — result for “cells in G2/M phase”: 13.8% and 7.64% and 10.9% (CHP-212 parental (wild-type USP7); PI flow cytometry; 0.3 µM, 24 h).
With CC(C)NCC(O)c1ccc(O)c(O)c1 (stereo not drawn) the sarcomere length was 1.8 µm (mouse ventricular cardiomyocytes; dose not given, 0.351 s).
With CCNc1nc(Nc2ccc(F)c(Cl)c2)c2ccccc2n1 the cytotoxicity was 0.24% (Vero; MTT; 62.5 µg/mL).
For CC[C@H](C)[C@H](NC(=O)[C@H](CCCCN)NC(=O)[C@@H](NC(=O)[C@H](CCCNC(=N)N)NC(=O)[C@@H](NC(=O)[C@@H](CCCNC(=N)N)NC(=O)[C@@H](CCCNC(=N)N)NC(=O)[C@@H](CCCNC(=N)N)NC(=O)[C@@H](CCCNC(=N)N)NC(=O)[C@@H](CCCNC(=N)N)NC(=O)[C@H](N)CCCNC(=N)N)[C@@H](C)O)[C@@H](C)O)C(=O)N[C@@H](CC(=O)O)C(=O)N[C@@H](Cc1c[nH]c2ccccc12)C(=O)NC(C)(C)C(=O)N[C@@H](CCCCN)C(=O)N[C@H](C(=O)N[C@@H](CC(C)C)C(=O)NC(C)(C)C(=O)N[C@@H](CCCCN)C(=O)NCCCCCC(=O)NCCCC[C@H](NC(=O)CCCCCNC(=O)[C@H](CCCCN)NC(=O)C(C)(C)NC(=O)[C@H](CC(C)C)NC(=O)[C@@H](NC(=O)[C@H](CCCCN)NC(=O)C(C)(C)NC(=O)[C@H](Cc1c[nH]c2ccccc12)NC(=O)[C@H](CC(=O)O)NC(=O)[C@@H](NC(=O)[C@H](CCCCN)NC(=O)[C@@H](NC(=O)[C@H](CCCNC(=N)N)NC(=O)[C@@H](NC(=O)[C@@H](CCCNC(=N)N)NC(=O)[C@@H](CCCNC(=N)N)NC(=O)[C@@H](CCCNC(=N)N)NC(=O)[C@@H](CCCNC(=N)N)NC(=O)[C@@H](CCCNC(=N)N)NC(=O)[C@H](N)CCCNC(=N)N)[C@@H](C)O)[C@@H](C)O)[C@@H](C)CC)[C@@H](C)CC)C(N)=O)[C@@H](C)CC, “time to apoptosis signs (blebbing)” read at most 2 h (SK-MEL-5; microscopy; concentration not given).
Cc1cc(Nc2ncc(Cl)c(Nc3ccccc3S(=O)(=O)C(C)C)n2)c(OC(C)C)cc1C1CCNCC1: “log2 fold change” -1.98 (CLB-GE; phosphoproteomics LC-MS/MS, measured: PPP1R12A phosphorylation; 200 nM, 60 min; baseline: untreated).
For Clc1nc(NCc2ccco2)c2[nH]cnc2n1, the ΔPSI was -0.213 (iPSC-derived cardiomyocytes; RNA-seq, measured: ANKRD10 chr13 exon ending 110900694; unit not given; baseline: DMSO minus compound).
COc1cnc2cccc(N3CCc4c(cc(Cn5ccnc5C)cc4-c4cn(C)nc4C(F)(F)F)C3=O)c2c1 has an EC50 of 4.4 µM (Pfeiffer; cell growth; 120 h).
The necrotic cells of O=P1(C2CCCCC2)CCCCC1 is reported as 0.05% (HaCaT; annexin V/PI flow cytometry; IC50, 72 h).
For CC(=O)c1nn(-c2ccc(Cl)cc2)/c(=N/N=C(\C)c2ccc(NC(=O)c3ccc(C)cc3)cc2)s1, the viability was 3.13% (HepG2; 5 µM).
With C=CC1=C(C)c2cc3[n-]c(cc4nc(cc5[n-]c(cc1n2)c(C)c5C=C)C(C)=C4CCC(=O)O)c(CCC(=O)O)c3C.[Zn+2] the fold change was 2 (SH-SY5Y; RNA-seq, measured: TGM2 mRNA; 5 µM, 5 h; baseline: untreated cells).
O=C(NC[C@H](O)CN1CCc2ccccc2C1)c1cc(NC2COC2)ncn1: protein interaction “decreased” (HeLa; co-immunoprecipitation, western blot, measured: SNRPB with GFP-SART3; 10 µM, 3 days).
For Cc1nn(CC(F)(F)F)cc1Nc1ncc(Br)c(NCc2ccc(S(N)(=O)=O)cc2)n1, the phospho-TBK1/TBK1 ratio was 1.21 and 0.939 and 1.11 (RAW-ISG; western blot; 10 µM, added: HT-DNA; baseline: vehicle).
For CCCCCCCCCCCCCCC/C(NCc1ccccc1)=C1/C(=O)OC(CO)C1=O (stereo not drawn), “G2/M phase cells” read 24.4% (G2-synchronized tsFT210 cells; flow cytometry; 5 µM, 4 h, 32 °C, release from G2 arrest).
For COc1cccc2c1C(=O)c1c(O)c3c(c(O)c1C2=O)C[C@@](O)(C(=O)CO)C[C@@H]3O[C@H]1C[C@H](N)[C@H](O)[C@H](C)O1, the growth inhibition was 15.4 ± 1.91% (Vero; MTT; 100 µM, 48 h).
The viability of Cc1cccc(-c2[nH]c(CNc3ccccc3F)nc2-c2ccc3ncnn3c2)n1 is reported as 64% and 80% and 71% (MM1.S; XTT; 0.8 µM).
CC/C(=N\NC(=O)C(C)Nc1ccccc1)c1ccc(O)c(C)c1O (stereo not drawn) — result for “LATS band intensity”: 0.26 ± 0.34 (SK-OV-3; Western blot; 10 µM, 1 h, 2D culture, unit not given; baseline: DMSO).
The EC50 of CCn1cc(-c2cc(Cn3ccoc3=N)cc3c2CCN([C@@H](C)c2cc(OC)ccn2)C3=O)c(C(F)(F)F)n1 is reported as 4.76 µM (NCI-H1838; cell growth, inhibitor; 120 h).
With CCCCOC(=O)Cn1c2ccc(OC)cc2c2nc3ccccc3nc21 the efficacy was 50% (LDR; silenced CMV-GFP reporter derepression, qHTS).
CC(=O)Nc1cccc(-n2c(=O)n(C3CC3)c(=O)c3c(Nc4ccc(I)cc4F)n(C)c(=O)c(C)c32)c1 gave a fractional effect of 0.399 and 0.207 (MeWo (NF1); cell viability, resazurin; 6.25 nM, 72 h; baseline: DMSO).
For [Cl-].c1csc([I+]c2cccs2)c1, “extracellular H2O2 production” read 12 ± 4% (Caco-2; 10 µM, 1 h; baseline: control).
CCCCc1nc(Cl)c(CO)n1Cc1ccc(-c2ccccc2-c2nn[nH]n2)cc1 — result for “log2 fold change”: 2.4 (human PBMC; RNA-seq, measured: CXCL8 mRNA; 10 µg/mL, 24 h; baseline: untreated control).
The cell growth of O=C(Nc1nnc2n3c(=S)[nH][nH]c3nc(-c3ccc(Cl)cc3)c1-2)c1ccccc1 is reported as 75.2% (SR; SRB; 10 µM, NCI60 single-dose screen; baseline: untreated).
For COc1ccc2c(N(C)c3ccc(/C(C)=N/OCCN)cc3)c3c(Cl)coc3nc2c1, “Bax protein increase” read 100% (RWPE-1; immunoblot; 1 µM, 72 h, steroid-reduced medium).
Under “number of upregulated genes”, Cn1cc(Nc2nccc(-c3ccc4c(c3)CN(C3COC3)CC[C@H]4NC(=O)c3cn(C(C)(C)C)nn3)n2)cn1 is recorded as 26 (human B cells; 100 nM, 64 h, stimulation-upregulated genes, added: CD40L, anti-IgM, IL-21).
The IC75 of N#Cc1c(Oc2ccc(F)c(NC(=O)Cc3cccc(C(F)(F)F)c3)c2)ccc2nc(NC(=O)C3CC3)sc12 is reported as 0.542 µM (SK-MEL-239 C4; ERK phosphorylation, inhibitor, Western blot, measured: p-ERK/total ERK; 1 h).
With CCCCN1C[C@H](O)[C@@H](O)[C@@H](O)[C@H]1CO the IC50 was 4.1 µM (sample C patient fibroblasts; Gb3 level lowering, LC-MS/MS, measured: Gb3 d18:1/24:0; 216 h).
Cn1c(Nc2nc3ccc(C(F)(F)F)cc3s2)nc2cc(C(=O)NCCOCCO)ccc21 gave a fold change of 3.5 (SH-SY5Y; RNA-seq, measured: ANKRD1 mRNA; 5 µM, 5 h; baseline: untreated cells).

Some of these lines once more:
CC/C(=N\NC(=O)C(C)Nc1ccccc1)c1ccc(O)c(C)c1O (stereo not drawn) — result for “LATS band intensity”: 0.26 ± 0.34 (SK-OV-3; Western blot; 10 µM, 1 h, 2D culture, unit not given; baseline: DMSO).
The EC50 of CCn1cc(-c2cc(Cn3ccoc3=N)cc3c2CCN([C@@H](C)c2cc(OC)ccn2)C3=O)c(C(F)(F)F)n1 is reported as 4.76 µM (NCI-H1838; cell growth, inhibitor; 120 h).
With CCCCOC(=O)Cn1c2ccc(OC)cc2c2nc3ccccc3nc21 the efficacy was 50% (LDR; silenced CMV-GFP reporter derepression, qHTS).
